Published values of several laboratories.
Lines come from different studies, so protocols differ. ± gives the spread as reported.

CC(C)c1cnc(-c2cc(Cl)ccc2F)cc1Nc1ccncc1C(=O)NC(CO)CO
PSA decrease (human; 250 mg, with: enzalutamide): 45.9%

CCCCCCCCCn1cc(C(N)(CO)CO)nn1
proliferating neural progenitors (APP/PS1 mouse, dentate gyrus; dose not given; reference: PBS): increased

Cc1cc(O)c(C=O)c2c1C(=O)Oc1c(CO)c(O)c3c(c1O2)C(O)OC3=O (stereo not drawn)
Mount latency (copulatory behaviour test; rat, male, streptozotocin-induced diabetes; 5 mg/kg, day 63): 560 ± 29.5 s

COC1CCC(N(C(=O)C2CCC(C)CC2)c2cc(C3=CCCCC3)sc2C(=O)O)CC1 (stereo not drawn)
hypocotyl length (Arabidopsis thaliana spy-4 seedlings; 30 µM, sugar-containing medium, darkness): no effect

O=C(O)C1OC(Oc2cccc(-c3nc(N4CCOCC4)c4oc5ncccc5c4n3)c2)C(O)C(O)C1O (stereo not drawn)
Vmax (glucuronide formation; mouse liver microsomes): 274 ± 8.32 pmol/min/mg

Cc1nc(C)c(C=[N+]([O-])C(C)(C)C)nc1C
protein level increase (Western blot, measured: MEF2D; mouse, MPTP model, substantia nigra nuclei; 10 mg/kg): 41%

CCCCCCCCCCCCCCCC(=O)NCCCC[C@H](N)C(=O)N[C@@H](CC(=O)O)C(=O)N[C@H](C(=O)N[C@@H](Cc1c[nH]cn1)C(=O)N[C@@H](Cc1ccccc1)C(=O)N[C@@H](CCCNC(=N)N)C(=O)N[C@H](C(=O)N[C@@H](Cc1ccccc1)C(=O)N[C@@H](CCCNC(=N)N)C(=O)N[C@@H](CO)C(=O)N[C@@H](Cc1c[nH]cn1)C(=O)N[C@@H](CO)C(=O)N[C@@H](CC(=O)O)C(=O)N[C@@H](Cc1ccc(O)cc1)C(=O)N[C@@H](CCCNC(=N)N)C(=O)N[C@@H](CCCNC(=N)N)C(=O)N[C@H](C(=O)O)[C@@H](C)CC)[C@@H](C)O)[C@@H](C)O
serum ALT (C57BL/6J mouse, MCD diet; intraperitoneal, 0.6 nmol/g, 3 weeks, 3 times weekly): 230 ± 32.7 IU/L

CSCCNc1nc(SCCC(F)(F)F)nc2c1ncn2[C@@H]1O[C@H](COP(=O)(O)OP(=O)(O)C(Cl)(Cl)P(=O)(O)O)[C@@H](O)[C@H]1O
patients with high reactivity (ADP-induced platelet aggregation, LTA, >59% aggregation; human patients, platelet-rich plasma; dose not given, 1 h, with: ADP 20 µM): 55%

CC[C@H](C)[C@@H]1NC(=O)[C@H](Cc2ccc(O)cc2)NC(=O)[C@@H](N)CSSC[C@@H](C(=O)N2CCC[C@H]2C(=O)N[C@@H](CCCCNC(=O)COCCOCCNC(=O)COCCOCCNC(=O)CC[C@H](NC(=O)CC[C@H](NC(=O)CCCCCCCCCCCCCCCCC(=O)O)C(=O)O)C(=O)O)C(=O)NCC(N)=O)NC(=O)[C@H](CC(N)=O)NC(=O)[C@H](CCC(N)=O)NC1=O
body weight change (C57BL/6 mice, diet-induced obese; subcutaneous, 2 µmol/kg daily, 14 days; reference: vehicle): -13.2 ± 0.7%

CC(C)n1cnc(-c2ccc(F)cc2)c1-c1ncc(C(=O)Nc2ccc(N3CCN(C)CC3)cc2)[nH]1
change in FVC (IPF patients; 30 mg once daily, 12 weeks, mean; reference: baseline): -27 mL

O=C1/C(=C/c2ccc(O)c(O)c2)Oc2c1c(O)cc(O)c2-c1ccc(O)c(O)c1
serum LDH level (mouse, CCl4-induced liver injury; intragastric, 200 or 100 mg/kg, 10 days pretreatment): decreased

CCCCCCCCNc1ccc(C(=O)O)cc1S(=O)(=O)N(C)C
Ca2+ influx (hippocampal neurons 3 DIV, mouse; 10 µM, with: GABA 100 µM; reference: DMSO): decreased

Cc1cc2c(cc1C1(c3ncc(C(=O)O)cn3)CC1)C(C)(C)CCC2(C)C
log2 fold change (RNA sequencing, measured: Abca1 mRNA; rat, brain; dose not given, 24 h, single dose; reference: vehicle): -1.04

CC(=O)[O-].O.O.O.O.[Mn+2].[O-]c1ccc(Br)cc1C=NCCN1CCOCC1
ferric reducing power (FRAP; 240 µM): 55.5%

N=C(N)NCCC[C@@H]1NC(=O)[C@H](CCCNC(=N)N)NC(=O)[C@H](CCCNC(=N)N)NC(=O)[C@H](Cc2ccc3ccccc3c2)NC(=O)[C@H](Cc2c[nH]c3ccccc23)NC(=O)[C@H](Cc2ccc3ccccc3c2)NC(=O)[C@H](CCCNC(=N)N)NC1=O
calcein leakage (bacterial mimic liposomes; 5 µg/mL, 40 min): ~20%

CC(=O)C1=C(C)NC(=O)NC1c1ccccc1 (stereo not drawn)
antioxidant potency ratio (FRAP; reference: gallic acid): ~1.5 fold

CCc1nc(-c2ccc(-c3ccc(CCC(N)(CO)CO)cc3)cc2)co1
Vmax (phosphorylation; rat whole blood; 60 min, 37 °C, up to 100 µM): 20.1 ± 3.6 pmol/min

CN(C)C(=O)c1ccnc(N2Cc3cn(Cc4ccc(F)cc4F)nc3C2)n1
effect size d (myelinated axon density, electron microscopy; mouse cuprizone diet, corpus callosum; unit not given; reference: cuprizone vehicle): 1.81

COc1cc2c(cc1OC)-c1cc3ccc(OC)c(OC)c3c[n+]1CC2
LDL cholesterol (rat, STZ-induced diabetic, serum; oral, 12 mg/kg, day 28): 58.8 ± 2.41 mg/dL

CC(C)OC(=O)[C@H](CO)NCc1cc(Cl)c(OCc2cccc(-c3ccccc3)c2Br)cc1OCc1cccnc1
tumour weight inhibition (hPD-L1 MC-38 tumour, humanised hPD-1 C57BL/6 mouse; oral, 5 mg/kg × 21): 60.9%

COc1ccc(C2CC(c3ccc(C)cc3)=Nc3ccccc3S2)cc1 (stereo not drawn)
LDL cholesterol (Wistar rat, STZ-induced diabetes, serum; 10 mg/kg, 28 days): 123 mg/dL

CSCC[C@H](NC(=O)[C@H](CO)NC(=O)[C@@H](N)CO)C(=O)N[C@@H](CCCCN)C(=O)N[C@@H](CC(C)C)C(=O)N[C@@H](CO)C(=O)N[C@@H](Cc1ccccc1)C(=O)N[C@@H](CCCNC(=N)N)C(=O)N[C@@H](C)C(=O)N[C@@H](CCCNC(=N)N)C(=O)N[C@@H](C)C(=O)N[C@@H](Cc1ccc(O)cc1)C(=O)NCC(=O)N[C@@H](Cc1ccccc1)C(=O)N[C@@H](CCCNC(=N)N)C(=O)NCC(=O)N1CCC[C@H]1C(=O)NCC(=O)N1CCC[C@H]1C(=O)N[C@@H](CCC(N)=O)C(=O)N[C@@H](CC(C)C)C(=O)O
blood glucose (insulin tolerance test; DIO mouse; dose not given, 0 min, chronic treatment): 121 ± 9.63 mg/dL

Cc1cnc(Nc2cc(C)c(C)c(C)c2)nc1Nc1ccc2oc(=O)[nH]c2c1
NF-κB p65 level (rat, OVA asthma model, lung tissue; dose not given, 2 h after OVA challenge): no effect

CC[C@H]1[C@@H](O)[C@@H]2[C@H](CC[C@]3(C)[C@@H]([C@H](C)CCOS(=O)(=O)[O-])CC[C@@H]23)[C@@]2(C)CC[C@@H](O)C[C@@H]12.[Na+]
liver triglycerides (ob/ob NASH mice, liver; oral, 10 mg/kg once daily, 8 wk): 149 ± 14 mg/g tissue

COc1c2c(cc3oc(CO)cc(=O)c13)O[C@H](C(C)(C)O)C2
hot plate latency (analgesia; mouse; oral, 1 mg/kg, 2 h): 12.7 ± 1.44 s

CC12CC(O)C3CC1(OC1OC(CO)C(O)C(O)C1O)C3(COC(=O)c1ccccc1)C(=O)O2 (stereo not drawn)
body temperature (pseudo-germ-free mice, reserpine model; 14 mg/kg, 7 days): 34.5 ± 0.58 °C

CCCOC(=O)Cc1c(C)n(C(=O)c2ccc(Cl)cc2)c2ccc(OC)cc12
latency of nociceptive response (hot plate test; BALB/c mice; 50 mg/kg, 0 min): 10.5 ± 0.28 s

For quick reference, copied from above:
COc1c2c(cc3oc(CO)cc(=O)c13)O[C@H](C(C)(C)O)C2
hot plate latency (analgesia; mouse; oral, 1 mg/kg, 2 h): 12.7 ± 1.44 s

CCCCCCCCNc1ccc(C(=O)O)cc1S(=O)(=O)N(C)C
Ca2+ influx (hippocampal neurons 3 DIV, mouse; 10 µM, with: GABA 100 µM; reference: DMSO): decreased
